Measurements collected from several papers.
Each numbered part is a random draw from the data of one study; scales do not carry over between parts. Values joined by “and” are separate records of one study, mostly repeats; a detail may differ.
Chain of UniProt Q9Y5S2 (whole entry, looked up): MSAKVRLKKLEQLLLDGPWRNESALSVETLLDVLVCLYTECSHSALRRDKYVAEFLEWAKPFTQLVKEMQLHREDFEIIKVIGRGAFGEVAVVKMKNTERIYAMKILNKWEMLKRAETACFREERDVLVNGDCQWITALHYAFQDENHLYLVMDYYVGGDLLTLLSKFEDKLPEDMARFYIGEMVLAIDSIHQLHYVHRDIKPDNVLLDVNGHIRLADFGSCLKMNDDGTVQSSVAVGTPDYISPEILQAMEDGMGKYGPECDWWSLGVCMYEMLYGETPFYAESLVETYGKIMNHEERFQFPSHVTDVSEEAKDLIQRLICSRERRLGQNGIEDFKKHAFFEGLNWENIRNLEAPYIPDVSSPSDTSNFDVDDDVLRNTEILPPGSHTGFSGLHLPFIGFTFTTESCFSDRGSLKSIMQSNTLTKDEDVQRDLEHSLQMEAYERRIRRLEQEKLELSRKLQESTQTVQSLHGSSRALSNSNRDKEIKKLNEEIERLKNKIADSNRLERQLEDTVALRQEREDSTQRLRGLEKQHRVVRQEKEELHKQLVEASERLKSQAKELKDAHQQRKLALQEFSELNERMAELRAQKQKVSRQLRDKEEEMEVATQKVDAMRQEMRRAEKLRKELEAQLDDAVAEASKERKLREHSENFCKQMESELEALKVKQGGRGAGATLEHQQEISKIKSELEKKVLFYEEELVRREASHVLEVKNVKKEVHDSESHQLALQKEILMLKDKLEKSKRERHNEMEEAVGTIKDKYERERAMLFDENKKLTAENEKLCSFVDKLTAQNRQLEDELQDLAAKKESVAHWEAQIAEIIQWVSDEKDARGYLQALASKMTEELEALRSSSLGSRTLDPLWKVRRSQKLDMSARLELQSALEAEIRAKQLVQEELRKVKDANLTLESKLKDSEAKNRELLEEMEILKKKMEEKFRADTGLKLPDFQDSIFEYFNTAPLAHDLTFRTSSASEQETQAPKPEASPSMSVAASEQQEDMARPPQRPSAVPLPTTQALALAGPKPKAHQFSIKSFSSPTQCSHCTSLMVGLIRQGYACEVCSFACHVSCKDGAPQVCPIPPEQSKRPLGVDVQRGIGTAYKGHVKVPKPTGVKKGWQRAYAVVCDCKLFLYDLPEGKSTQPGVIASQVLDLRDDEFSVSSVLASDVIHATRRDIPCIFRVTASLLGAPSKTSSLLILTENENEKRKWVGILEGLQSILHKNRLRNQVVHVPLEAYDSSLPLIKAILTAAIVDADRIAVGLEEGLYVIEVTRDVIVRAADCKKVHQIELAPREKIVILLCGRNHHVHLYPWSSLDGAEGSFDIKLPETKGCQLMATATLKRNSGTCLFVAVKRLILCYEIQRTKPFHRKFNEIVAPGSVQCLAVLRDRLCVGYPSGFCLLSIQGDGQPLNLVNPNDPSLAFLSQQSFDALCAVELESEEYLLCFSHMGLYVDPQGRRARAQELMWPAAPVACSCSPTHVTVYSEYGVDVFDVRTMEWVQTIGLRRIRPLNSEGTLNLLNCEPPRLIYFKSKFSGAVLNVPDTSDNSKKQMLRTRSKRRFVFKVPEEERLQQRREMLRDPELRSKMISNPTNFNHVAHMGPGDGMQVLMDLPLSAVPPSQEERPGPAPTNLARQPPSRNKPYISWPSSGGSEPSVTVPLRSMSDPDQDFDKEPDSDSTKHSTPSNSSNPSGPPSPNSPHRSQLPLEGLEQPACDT
Chain of UniProt P07949 (whole entry, looked up): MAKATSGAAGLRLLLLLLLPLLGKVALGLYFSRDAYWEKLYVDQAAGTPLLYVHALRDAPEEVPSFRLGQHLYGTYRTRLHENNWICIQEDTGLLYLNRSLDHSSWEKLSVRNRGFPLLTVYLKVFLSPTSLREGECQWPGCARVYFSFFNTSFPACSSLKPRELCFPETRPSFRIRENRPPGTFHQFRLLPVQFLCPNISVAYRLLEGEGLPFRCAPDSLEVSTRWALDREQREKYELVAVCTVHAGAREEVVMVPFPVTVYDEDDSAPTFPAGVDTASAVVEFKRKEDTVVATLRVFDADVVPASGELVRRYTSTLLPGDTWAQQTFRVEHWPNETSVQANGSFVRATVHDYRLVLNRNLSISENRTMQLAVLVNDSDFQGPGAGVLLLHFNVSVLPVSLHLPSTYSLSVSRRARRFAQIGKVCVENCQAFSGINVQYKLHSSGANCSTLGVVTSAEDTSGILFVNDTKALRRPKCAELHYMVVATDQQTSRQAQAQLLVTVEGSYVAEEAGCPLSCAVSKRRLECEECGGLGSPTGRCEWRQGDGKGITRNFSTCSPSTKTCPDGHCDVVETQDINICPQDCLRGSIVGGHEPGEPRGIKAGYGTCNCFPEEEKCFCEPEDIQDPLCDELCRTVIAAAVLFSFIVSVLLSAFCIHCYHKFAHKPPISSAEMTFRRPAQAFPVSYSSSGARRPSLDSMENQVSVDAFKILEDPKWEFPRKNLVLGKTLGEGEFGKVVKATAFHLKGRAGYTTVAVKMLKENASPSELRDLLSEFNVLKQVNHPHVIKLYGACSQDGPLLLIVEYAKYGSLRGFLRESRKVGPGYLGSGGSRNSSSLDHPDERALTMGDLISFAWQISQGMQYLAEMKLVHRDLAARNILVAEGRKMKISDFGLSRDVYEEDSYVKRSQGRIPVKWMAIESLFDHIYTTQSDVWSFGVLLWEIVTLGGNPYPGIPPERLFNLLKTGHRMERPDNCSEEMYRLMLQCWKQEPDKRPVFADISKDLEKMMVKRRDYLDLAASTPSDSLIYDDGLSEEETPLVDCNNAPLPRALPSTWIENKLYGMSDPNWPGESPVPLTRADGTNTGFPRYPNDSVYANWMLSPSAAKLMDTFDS
Chain of UniProt Q9HAZ1 (whole entry, looked up): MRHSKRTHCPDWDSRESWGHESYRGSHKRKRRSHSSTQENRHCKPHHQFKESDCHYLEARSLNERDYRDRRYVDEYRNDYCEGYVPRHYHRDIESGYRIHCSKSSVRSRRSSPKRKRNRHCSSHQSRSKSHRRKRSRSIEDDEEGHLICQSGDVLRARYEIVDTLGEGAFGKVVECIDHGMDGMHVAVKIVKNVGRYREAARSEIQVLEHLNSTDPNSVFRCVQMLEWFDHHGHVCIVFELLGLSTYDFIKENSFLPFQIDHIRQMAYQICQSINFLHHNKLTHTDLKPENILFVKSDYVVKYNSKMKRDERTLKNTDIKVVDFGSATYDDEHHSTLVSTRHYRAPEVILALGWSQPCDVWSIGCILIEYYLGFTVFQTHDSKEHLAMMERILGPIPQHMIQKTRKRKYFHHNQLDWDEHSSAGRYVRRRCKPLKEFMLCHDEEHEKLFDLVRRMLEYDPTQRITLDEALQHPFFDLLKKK
Chain of UniProt P35968 (whole entry, looked up): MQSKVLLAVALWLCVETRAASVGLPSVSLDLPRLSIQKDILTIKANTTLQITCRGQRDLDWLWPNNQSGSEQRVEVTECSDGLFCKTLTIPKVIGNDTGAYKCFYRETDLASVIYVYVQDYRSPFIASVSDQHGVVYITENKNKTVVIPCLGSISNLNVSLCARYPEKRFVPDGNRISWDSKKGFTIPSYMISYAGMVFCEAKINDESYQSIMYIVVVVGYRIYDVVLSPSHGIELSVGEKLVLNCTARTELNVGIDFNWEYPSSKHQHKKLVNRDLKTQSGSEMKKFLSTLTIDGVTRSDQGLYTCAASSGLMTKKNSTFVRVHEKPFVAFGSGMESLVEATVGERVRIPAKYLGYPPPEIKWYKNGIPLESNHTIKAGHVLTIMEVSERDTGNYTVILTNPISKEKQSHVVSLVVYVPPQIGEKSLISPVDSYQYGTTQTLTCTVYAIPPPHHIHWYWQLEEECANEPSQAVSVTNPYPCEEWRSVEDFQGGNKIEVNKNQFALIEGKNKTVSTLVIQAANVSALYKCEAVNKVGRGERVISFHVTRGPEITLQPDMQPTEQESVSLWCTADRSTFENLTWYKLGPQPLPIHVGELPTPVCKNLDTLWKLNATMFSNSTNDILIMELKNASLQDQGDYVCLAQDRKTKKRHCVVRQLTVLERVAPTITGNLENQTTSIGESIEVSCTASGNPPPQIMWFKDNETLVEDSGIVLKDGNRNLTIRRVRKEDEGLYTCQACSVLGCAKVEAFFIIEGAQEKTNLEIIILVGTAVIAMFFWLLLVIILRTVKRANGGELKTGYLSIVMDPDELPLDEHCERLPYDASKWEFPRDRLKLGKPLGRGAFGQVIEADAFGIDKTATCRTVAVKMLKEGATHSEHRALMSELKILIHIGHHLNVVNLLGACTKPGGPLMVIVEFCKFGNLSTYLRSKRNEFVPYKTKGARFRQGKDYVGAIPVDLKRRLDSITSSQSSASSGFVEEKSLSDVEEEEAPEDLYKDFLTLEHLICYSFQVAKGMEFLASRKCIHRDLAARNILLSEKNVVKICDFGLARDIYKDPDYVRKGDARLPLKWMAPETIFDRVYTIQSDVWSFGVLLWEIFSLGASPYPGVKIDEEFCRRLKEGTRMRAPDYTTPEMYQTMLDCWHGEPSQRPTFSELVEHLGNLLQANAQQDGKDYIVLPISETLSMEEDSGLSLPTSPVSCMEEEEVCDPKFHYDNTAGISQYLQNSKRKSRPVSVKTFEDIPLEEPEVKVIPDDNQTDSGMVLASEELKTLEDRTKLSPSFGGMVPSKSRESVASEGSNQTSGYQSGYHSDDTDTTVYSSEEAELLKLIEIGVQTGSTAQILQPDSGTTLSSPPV
Chain of UniProt P50750 (whole entry, looked up): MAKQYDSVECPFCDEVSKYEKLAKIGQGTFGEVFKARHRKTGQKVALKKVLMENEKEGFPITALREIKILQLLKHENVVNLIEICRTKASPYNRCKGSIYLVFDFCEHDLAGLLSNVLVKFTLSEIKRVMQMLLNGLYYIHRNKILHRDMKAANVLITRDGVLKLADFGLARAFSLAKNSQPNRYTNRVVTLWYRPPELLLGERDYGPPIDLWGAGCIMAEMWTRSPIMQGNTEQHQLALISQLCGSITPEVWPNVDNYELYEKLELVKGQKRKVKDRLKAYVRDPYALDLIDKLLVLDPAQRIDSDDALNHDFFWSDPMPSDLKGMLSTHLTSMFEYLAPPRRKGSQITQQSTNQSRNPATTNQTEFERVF

Study 1 — read-out: binding; tested at: 1 µM
Structure (SMILES): CN1CCN(C(=O)c2ccc(NC(=O)Nc3ccc(N(C)c4ccnc(Nc5ccc(CS(C)(=O)=O)cc5)n4)cc3)cc2)CC1
target	test	remaining binding
RIOK3 (Homo sapiens, UniProt O14730)	–	0%
RET (Homo sapiens, UniProt P07949)	competition with immobilised ligand	0%
PRKX (Homo sapiens, UniProt P51817)	–	100%
EPHB1 (Homo sapiens, UniProt P54762)	competition with immobilised ligand	87%
MAST1 (Homo sapiens, UniProt Q9Y2H9)	–	61%
CSNK1A1L (Homo sapiens, UniProt Q8N752)	–	100%
MAPK12 (Homo sapiens, UniProt P53778)	competition with immobilised ligand	100%
Macrophage colony-stimulating factor 1 receptor, autoinhibited (CSF1R, Homo sapiens, UniProt P07333)	–	8.8%

Study 2 — read-out: binding; action: competitor; method: NanoBRET; cell line: HEK293
Structure (SMILES): CC(C)C(=O)N1CCN(c2nc(OC[C@@H]3CCCN3C)nc3c2CCN(c2cccc4cccc(Cl)c24)C3)C[C@@H]1CC#N
KRAS Q61H: GTPase KRas (KRAS, Homo sapiens, UniProt P01116, Q61H)
target	conditions	normalized BRET
GTPase KRas (KRAS, Homo sapiens, UniProt P01116, G12D)	5.08 nM	97.3% and 101% and 90.7%
KRAS Q61H	5.08 nM	99.2% and 97.4% and 107%
KRAS Q61H	1.69 nM	102% and 103% and 96.3%
KRAS Q61H	15.2 nM	107% and 94% and 92.9%
KRAS Q61H	137 nM	102% and 96.8% and 95.2%
GTPase KRas (KRAS, Homo sapiens, UniProt P01116, G13D)	33.3 µM	59.6% and 55.6% and 43.2%

Study 3 — read-out: enzyme activity; action: inhibitor; tested at: 0.5 µM; baseline: control
SMILES: COc1ccc(CNC(=O)Nc2ncc([N+](=O)[O-])s2)cc1
target	remaining activity [%]
MARK2 (Homo sapiens, UniProt Q7KZI7)	106
Cyclin-dependent kinase 9, with cyclin K (CDK9, Homo sapiens, UniProt P50750)	82.8
DDR2 (Homo sapiens, UniProt Q16832)	100
CDC42BPB (Homo sapiens, UniProt Q9Y5S2)	93.5
PAK3 (Homo sapiens, UniProt O75914)	94.6
Cyclin-dependent kinase 1, with cyclin A (CDK1, Homo sapiens, UniProt P06493)	93.4
MAP2K1 (Homo sapiens, UniProt Q02750)	101
NEK3 (Homo sapiens, UniProt P51956)	78.6
GRK4 (Homo sapiens, UniProt P32298)	92.1
MARK4 (Homo sapiens, UniProt Q96L34)	92.2
TXK (Homo sapiens, UniProt P42681)	96.9
KDR (Homo sapiens, UniProt P35968)	85.7
CAMK4 (Homo sapiens, UniProt Q16566)	96.7
CLK4 (Homo sapiens, UniProt Q9HAZ1)	92.8

Study 4 — tested at: 1 µM
SMILES: CN(C)c1ncnc(-c2ccc3nc(Nc4cc(CN5CCN(C(=O)CC(F)(F)F)CC5)ccn4)[nH]c3c2)c1Cl
target	test	remaining binding [%]
AAK1 (Homo sapiens, UniProt Q2M2I8)	binding	85
CDK17 (Homo sapiens, UniProt Q00537)	cell-free assay, competition with immobilised ligand	100
MAP3K3 (Homo sapiens, UniProt Q99759)	cell-free assay, competition with immobilised ligand	50
MAP3K19 (Homo sapiens, UniProt Q56UN5)	cell-free assay, competition with immobilised ligand	15
ERN1 (Homo sapiens, UniProt O75460)	cell-free assay, competition with immobilised ligand	62
WEE1 (Homo sapiens, UniProt P30291)	cell-free assay, competition with immobilised ligand	100

For quick reference, copied from above (study 2):
target	conditions	normalized BRET
KRAS Q61H	5.08 nM	99.2% and 97.4% and 107%
KRAS Q61H	1.69 nM	102% and 103% and 96.3%
KRAS Q61H	15.2 nM	107% and 94% and 92.9%
